Measured values from different studies.
± marks the error that the study gave.

| SMILES | assay | system | setting | scale | AUC(0-t) |
| --- | --- | --- | --- | --- | --- |
| C[C@@H]1Cc2c([nH]c3ccccc23)[C@@H](c2c(F)cc(/C=C/C(=O)O)cc2F)N1C12CC(C1)C2 |  | Balb/c nude mouse, MCF7 xenograft, plasma | oral, 5 mg/kg, steady state |  | 9900 ng·h/mL |
| NC(=O)c1ccc(C(=O)NOCc2ccc(Sc3cccc(Cl)c3)c(C(F)(F)F)c2)cc1 |  | male ICR mouse, plasma | oral, 60 mg/kg |  | 8130 ng·h/mL |
| O=C(CCCCC[N+]#[C][99Tc-5]([C]#[N+]CCCCCC(=O)N[C@H]1C(O)O[C@H](CO)[C@@H](O)[C@@H]1O)([C]#[N+]CCCCCC(=O)N[C@H]1C(O)O[C@H](CO)[C@@H](O)[C@@H]1O)([C]#[N+]CCCCCC(=O)N[C@H]1C(O)O[C@H](CO)[C@@H](O)[C@@H]1O)([C]#[N+]CCCCCC(=O)N[C@H]1C(O)O[C@H](CO)[C@@H](O)[C@@H]1O)[C]#[N+]CCCCCC(=O)N[C@H]1C(O)O[C@H](CO)[C@@H](O)[C@@H]1O)N[C@H]1C(O)O[C@H](CO)[C@@H](O)[C@@H]1O (some centres unmarked) | two-compartment model | CD-1 mouse, blood | dose not given, 4 h |  | 236 %ID/g·min |
| CC(C)(C)NCC(SS(=O)(=O)O)c1ccccc1 (centres unmarked) |  | Swiss Webster CFW mouse, female, plasma | intravenous, 15 mg/kg, from 0 h to last |  | 2510 ng·h/mL |
| Cc1ccc(OCC(=O)N(Cc2cccs2)c2ccn[nH]2)cc1 |  | male CD-1 mouse, plasma | oral gavage, 30 mg/kg |  | 128 ng·h/mL |
| N#CC1(c2ccc3c(N)ncnn23)OC(COP(=O)(O)O)C(O)C1O (centres unmarked) | LC-MS/MS | CD-1 mouse, kidney | oral, 100 mg/kg of remdesivir |  | 119000 nmol·h/kg |
| COc1ccc(NC(=O)N2CCCN3CCC(c4ccc(C#Cc5ccccc5)cc4)C3C2)cc1 (centres unmarked) |  | CD-1 mouse, plasma | oral, 10 mg/kg single dose |  | 1950 ng·h/mL |
| Cc1cccc(O[C@H]2CCC[C@@H](C(C)CNCc3ccncc3)C2)c1 (relative stereo) |  | C57BL/6 mouse female, brain | oral, 25 mg/kg |  | 8270 ng·h/mL |
| CCCCCCCCCCCCCCCCCC(=O)Nc1ccn(C2OC(CO)C(O)C2(F)F)c(=O)n1 (centres unmarked) |  | mouse | iv bolus, 30 mg/kg gemcitabine equivalent |  | 86200 ± 5400 ng·h/mL |
| Cc1ccc(CNC(=O)Cc2ccc(-c3ccc(OCCN4CCOCC4)cc3)cn2)cc1 |  | ICR mouse | intravenous, 2 mg/kg |  | 770 ± 40 ng·h/mL |
| COc1cccc2c1C(=O)c1c(O)c3c(c(O)c1C2=O)CC(O)(C(=O)CO)CC3OC1CC(NC(=O)C[C@H](N)C(=O)O)C(O)C(C)O1 (some centres unmarked) |  | healthy mouse, plasma | intravenous, 5 mg/kg | baseline: doxorubicin | ~8.14 fold |

Excerpt of the above:
| SMILES | assay | system | setting | scale | AUC(0-t) |
| --- | --- | --- | --- | --- | --- |
| CC(C)(C)NCC(SS(=O)(=O)O)c1ccccc1 (centres unmarked) |  | Swiss Webster CFW mouse, female, plasma | intravenous, 15 mg/kg, from 0 h to last |  | 2510 ng·h/mL |
